Results pooled from the literature.
Every numbered part comes from another study and shows a few of its results, in no order.

Block 1 — method: RNA Bind-n-Seq; form: RNA; medium: in vitro; tested at: not given; relative to: input RNA pool; direction: higher = stronger binding
Target: RING finger protein unkempt homolog, zinc fingers 1-6, GST-SBP tag (UNK, Homo sapiens, UniProt Q9C0B0, residues 30-357)
Setting: RNA with constant flanks, human and mouse sites, ends assumed
All sequences stand within: GGGAGUUCUACAGUCCGACGAUC … CAACAGAGGAUUGAGCAUCA
Target sequence (chain): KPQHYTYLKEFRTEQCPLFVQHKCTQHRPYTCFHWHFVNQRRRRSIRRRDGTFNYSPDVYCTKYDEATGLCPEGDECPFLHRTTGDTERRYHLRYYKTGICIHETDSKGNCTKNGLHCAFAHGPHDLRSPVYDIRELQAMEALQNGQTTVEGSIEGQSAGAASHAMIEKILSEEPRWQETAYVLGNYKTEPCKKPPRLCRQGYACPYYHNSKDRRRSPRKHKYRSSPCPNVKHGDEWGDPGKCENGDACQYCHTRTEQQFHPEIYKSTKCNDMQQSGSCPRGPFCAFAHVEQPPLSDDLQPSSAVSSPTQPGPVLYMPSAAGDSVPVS
Oligonucleotide | bound/input enrichment [ratio]
GAGCAGGACAUGGAGCAAGUUUGGCAGGAGCUAUUUUCCAUUCCCGAAUUACAGUGUCUUAAUACCGAAAACAAGCAGCUGGCUGAUACUACCGCUGUUCCCAGCCCAGAAGCCACACUG | 0.181
GGAAAUCUAGACCUCCAAGUGUAUGCAGCAGAGUCUCCUCCAUCUUGAAACAAACAAAACAUUAGGCUCCUGUUGUAUCUUGGUUUAGUAACAGGCCCUUAAUUAACUUAUUUGUACAUG | 0.264
ACCUGCUUCCUUGCCAAGAAGAUAGCAUCUUCUAAGGUUUUCCAUUAUUAUGGUCCUGCUUUGGAAUUUGUGCAGAUGAUAAAACUAUCAGAUCUUCCCUCCUGUUACAUGUCGGAUAUC | 0.294
CGGCUGCUCAACCAGCAGCGUGAAUAUGAGGCGCAGCAGCAGUAUCGCCAGCACAUCCAGGUUUUCAUUGACCGGUUUCGCUACAAUGCCAACAGGGCCUCUCAAGUGCAGAGUAAACUC | 0.0735
CAUGUAACUGUGAAGAAGCUGUUUGUUGGCGGAAUUAAAGAAGAUACUGAGGAACAUCACCUUAGAGAUUACUUUGAGGAAUAUGGAAAAAUUGAUACCAUUGAGAUAAUUACUGAUAGG | 0.976
UACUUCAGCUCCGGGAAUGAGCCUGCAGAAAACCCGGUGACGCCGAUGCUGCGGCAUCUUAUGUACAAAAUAAAGUCUACUGGUCCCAUCACUGUGGCCGAGUACAUGAAGGAGGUGUUG | 0.0901
GAAGUUCUUGCUGACCGGCCACUAUUCCCACAUGUUCUCUGCCAUAACUGUGCAGUUGAAUUUAAUUUCGGUCAAAAGGAAAAGCCAUACUUUCCAAUACCUGAAGACUGUACUUUUAUC | 0.132
GCUGAACCUGAUAUUAUUGAACAACUGGUGGAAUUUGCUUAUACUGCUAGAAUUUCCGUGAAUAGCAACAAUGUUCAGUCUUUGCUGGAUGCAGCAAACCAAUAUCAGAUUGAACCUGUG | 0.438

Block 2 — method: RNA Bind-n-Seq; form: RNA; medium: in vitro; tested at: 1 µM; setting: whole 134-nt RNA, ends assumed; added: 150 mM KCl; relative to: input library; direction: higher = stronger binding
Target: Ras GTPase-activating protein-binding protein 1, RRM domain (G3BP1, Homo sapiens, UniProt Q13283)
UniProt Q13283, sequence (whole entry, looked up): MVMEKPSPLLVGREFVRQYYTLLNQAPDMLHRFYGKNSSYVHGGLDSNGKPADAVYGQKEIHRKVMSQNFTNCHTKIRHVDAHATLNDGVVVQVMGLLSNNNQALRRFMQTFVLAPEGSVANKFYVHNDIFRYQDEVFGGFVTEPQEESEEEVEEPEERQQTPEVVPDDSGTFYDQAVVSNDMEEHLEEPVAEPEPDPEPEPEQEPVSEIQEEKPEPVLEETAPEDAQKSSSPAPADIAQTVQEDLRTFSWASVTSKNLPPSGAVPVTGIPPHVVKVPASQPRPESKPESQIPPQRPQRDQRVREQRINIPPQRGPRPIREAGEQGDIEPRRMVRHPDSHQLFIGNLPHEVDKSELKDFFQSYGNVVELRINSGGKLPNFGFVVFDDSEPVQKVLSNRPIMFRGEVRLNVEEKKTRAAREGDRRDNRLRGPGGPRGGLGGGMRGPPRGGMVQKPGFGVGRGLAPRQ
All sequences stand within: GGGAGUUCUACAGUCCGACGAUC … UGGAAUUCUCGGGUGUCAAGG
Oligonucleotide | log2 enrichment
ACCAUGCAGGUGGGCAUCUUUGGGAAGUGGGGCAAGGGGGGGAUAGGGAGGGGGGUAACACUUUGGGAACAGGUGGGCCCAGGUCGUUUC | 1.32
CACAGACAACACGCACCCACACAGACACAGAGGGAAGGGGUUGGGAUGGGGACAGGGUGCACAGCAGGGCGGGGUAGGACCACAGCCCCU | -0.384
CACAGACAUCACGCACCCACACAGACACAGAGGGAAGGGGUUGGGAUGGGGACAGGGUGCACAGCAGGGCGGGGUAGGACCCCAGCCCCU | -0.152
AAGUCCUGUGCUACACAUCGUAUGUACCGAAUCGGGGAAAGGGGAAAGGGGAAAGGGAAAGUAUUAUGUUACGCCGUUCGGAUCUGCACU | 0.378
UGGGAGGUGGAUUUUGUUUAUUUUUUUAGCUCAUUUCCAGGGGUGGGAAUUUUUUUUUAAUAUGUGUCAUGAAUAAAGUUGUUUUUGAAA | 1.34
AGUCCUGUGCUACACAUCGUAUGUACCGAAUCGGGGAGGGGUUUGGGGUUUUUGGGGAAAGUAUUAUGUUACGCCGUUCGGAUCUGCACU | 1.15
UGUGCUACACAUCGUAUGUACCGAAUCGGGGAAAAAAAGGGGAAAAAAAGGGGAAAAAAAGGAAAGUAUUAUGUUACGCCGUUCGGAUCU | 0.0907
UCCUGUGCUACACAUCGUAUGUACCGAAUCAAACCCCCCCAAACCCCCCCAAACCCAAAAAAGUAUUAUGUUACGCCGUUCGGAUCUGCA | -0.083
AAGUCCUGUGCUACACAUCGUAUGUACCGAAUCGGGUUUGGGUUUGGGGUUUGGGGAAAGUAUUAUGUUACGCCGUUCGGAUCUGCACUU | 0.701

Block 3 — method: competition protein-binding microarray; form: double-stranded DNA, one strand shown; medium: in vitro; tested at: 2 µM; added: Cbf1 competitor, 0.05 µM; direction: higher = stronger binding; all sequences stand within: … GTCTTGATTCGCTTGACGCTGCTG
Target: Phosphate system positive regulatory protein PHO4, full length, GST-tagged (PHO4, Saccharomyces cerevisiae, UniProt P07270, residues 1-312)
Setting: whole 60-bp probe, lowest competitor level
Construct (chain): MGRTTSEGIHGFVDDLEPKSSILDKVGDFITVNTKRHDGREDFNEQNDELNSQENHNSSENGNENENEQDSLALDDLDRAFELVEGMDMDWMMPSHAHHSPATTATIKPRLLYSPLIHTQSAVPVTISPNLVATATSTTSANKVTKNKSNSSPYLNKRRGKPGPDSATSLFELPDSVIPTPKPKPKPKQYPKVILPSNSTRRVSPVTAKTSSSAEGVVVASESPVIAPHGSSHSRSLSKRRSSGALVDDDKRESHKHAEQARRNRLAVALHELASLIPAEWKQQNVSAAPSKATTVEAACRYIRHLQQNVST
Oligonucleotide | fluorescence intensity
GTCCGAGAACCCACCCTCGTGTGGAACTTCTTGAGC | 10200 a.u.
GTCTTGTCTCATTGACCAGTGGGTGTCCCCACTTCA | 4530 a.u.
TCGATTATGGTATTTCTCGTGATGGGCCGGAAAGTT | 4850 a.u.
ACTTTCATTTGATGAAACGTGAAACTCTAATTAAGA | 9440 a.u.
AAATTACTAAGTTTTCACGTGCCTTACCCCGTATGA | 13700 a.u.
CGGGGTTAAGTTTGTCACAACACTTGCTTGCAGCAG | 3720 a.u.
CCTTTAGCACATAACCATGTGATTTATCCTCGCTTA | 8070 a.u.
CGGGGTTAAGTTTGTACTGTGGGTGGCTTGCAGCAG | 4080 a.u.
CGGCAAGAAAAAGATCGTGTGTCTCTAGAGCAGCTT | 5900 a.u.
GTCTTGTCTCATTGAGCTGTGGGTGTCCCCACTTCA | 4440 a.u.
GAAAACCTGGCTTGACTCGTGATGGCTTATTTAACG | 6460 a.u.
AAATTACTAAGTTGCTGTGTGGGTGACGCCGTATGA | 4870 a.u.
GTTGGCAGTCTCATCGCCGTGGGTAATCTTGAGTGG | 4860 a.u.
TATCCCATCTAATATTCCGTGATGGTTTAATGGTCA | 4090 a.u.
ATTATTTCTATCGGCCACGTGTTGATTGGGCTTAAT | 20300 a.u.
AAAGCGGTAATTTGTCACTTCACTTCACATATCTAT | 3590 a.u.
CATACCCAACCTTTTCACGTGCCTTAAGATATTTGT | 14900 a.u.
TGCGCAACAACTTGTCACCACACTTTATGTCTAGAA | 4540 a.u.
TATTCCATCTTTTCCCTCGTGTTGACAATAGAGTCA | 11300 a.u.

Block 4 — method: RNA Bind-n-Seq; form: RNA; medium: in vitro; tested at: 365 nM; relative to: no-protein control; direction: higher = stronger binding
Target: RNA binding protein fox-1 homolog 2, RRM domain, GST-SBP tag (RBFOX2, Homo sapiens, UniProt O43251-10, residues 100-194)
Setting: natural RNA segment, single round, ends assumed
All sequences stand within: GGGAGUUCUACAGUCCGACGAUC … UGGAAUUCUCGGGUGCCAA
Residues (chain): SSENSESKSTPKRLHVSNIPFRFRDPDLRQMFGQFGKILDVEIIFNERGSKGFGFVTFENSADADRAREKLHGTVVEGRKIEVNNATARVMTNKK
Oligonucleotide | RBNS enrichment (R)
GUCUGCUUCCAGCCAGUCUGCAACAUCUAGCCAUACCUUUCUUAUGCAAGCCAUUCAGUUAUCAGGACUGUGAAUUAACACUGUAUGAAUACAUUUCUGUACACCUUAUU | 0.664
GUGUGUGUGUUUAUUUAAGUUACUUUUCUUCCUUCUCCCCUUUUCUUUUUACCCCUCCCCCUUCUGCCAUGUAACUGGAGGAUGUGCUAUGAGGUUGCAAACAGCUGGAC | 2.44
UUUGAAAAUAAUGAAACCAUGUACCACUGUUUACAUCAUCUGUAGUGAUUUCAUAGAUAAUAUAUUUAAUAUGACAGAUUAUGUUUCAACUCUGUAGAUGUUUAACGUCA | 0.464
AAUUUUAUUUUAAAAUGUGUAUAUAUCAGGCUUAAUAAAGAUACUCUUUUAAGCUAUACACCUAGAAUUUGAGUUUUUCUGUUCAGUAUUUGGUUAUUUUGUGGCUAUAA | 0.505
UGCCUUUGUUCCAGAAGGCAUCAGGCCUCUAAAGACUGUCUCACAAGUGAUGCCCUUCUGGAGACUGAGGGUGUGGCCUUCCUCCCAUGCUCUCUCUGGGUGAGUGUGGG | 0.345
CAGGGUAUGCUUUCUAGAAAAUAUGCUGUUCUGUCCCAGAAUGACUGUGCAUAGGGUAUCCGUUUCAGAGCCUGGUGUUGUGCUAUUUAGAUGUUUGUCUUGCACAACAU | 0.503
UUUACACAAUUCUGAAAUCUGUUGCUUUUGUAAACAAAUUGUUUGAUCUUAGUGAUCCCCCUACUACUACCACCAAUUCACUUCACAAAGUCAGUUAUGAGUCUACCAGA | 0.572
AAUUUCAAUAUGUUUAUACUGGUGACUUUUAAGUCAUCUUGUAUUAUCCUGGGUAGGGUGAAAACCCUCAAGUAGUAUUUUUAUGAGCCUGGCAUGGUGAUAUAACUGAA | 0.907
